Assay results collected from several papers.
Parts stem from different laboratories: compare values within a part only.

Series 1
Organism: SARS-CoV-2 Wuhan spike VSV pseudovirus
Read-out: pseudovirus entry
Tested at: 10 µM
Quantity: inhibition
COc1cccc(Cl)c1-c1csc(C(N)=O)c1: 100%
CC(CNC(=O)c1nc(CCS(=O)(=O)c2ccc(Cl)cc2)no1)c1ccccc1 (stereo not drawn): 70%
OC(CNCC1COc2ccccc2C1)COc1ccc(Cl)cc1Cl (stereo not drawn): 100%
CN(CCc1cn[nH]c1)C(=O)c1coc(COc2cccc(F)c2F)n1: 69%
COC(=O)c1ccc(CN2CCN(CC3CCCCC3)C(CCO)C2)cc1 (stereo not drawn): 88%
O=C(NC1CC(=O)N(Cc2ccccc2Cl)C1)c1cc2ccccc2o1 (stereo not drawn): 81%

Mixed results
rep nsp12 RdRp: Replicase polyprotein 1ab, nsp12 RdRp (rep, Severe acute respiratory syndrome coronavirus 2, UniProt P0DTD1)
rep papain-like protease: Replicase polyprotein 1ab, papain-like protease (rep, Severe acute respiratory syndrome coronavirus 2, UniProt P0DTD1)
rep nsp14: Replicase polyprotein 1ab, nsp14 (rep, Severe acute respiratory syndrome coronavirus 2, UniProt P0DTD1)
Cc1ccc(NC(=O)C2(c3ccc4c(c3)OC(F)(F)O4)CC2)nc1-c1cccc(C(=O)O)c1
BLI response (rep nsp12 RdRp; binding, biolayer interferometry; concentration not given): 0 nm

CC(C)[C@H](O)C(=O)N[C@@H](C)C(=O)N[C@@H]1C(=O)N(C)CCc2ccccc21
activity (rep papain-like protease; concentration not given, C111S mutant; reference: positive control): 14.4%

C[S+](CC[C@H](N)C(=O)[O-])C[C@H]1O[C@@H](n2cnc3c(N)ncnc32)[C@H](O)[C@@H]1O (stereo partly drawn)
ΔTm (rep nsp14; thermal shift; 20 µM): 0.3 °C

CN1C(=N)N[C@](C)(c2cc(NC(=O)c3ccc(F)cn3)ccc2F)CS1(=O)=O
activity (rep papain-like protease; concentration not given, C111S mutant; reference: positive control): 23.5%

NC(=O)c1ccc(-c2nc(-c3ccc4c(c3)OCCO4)c(-c3ccccn3)[nH]2)cc1
BLI response (rep nsp12 RdRp; binding, biolayer interferometry; concentration not given): -0.02 nm

Cc1ccc(NS(=O)(=O)c2cccc(C(=O)NC3CCN(c4ncnc5[nH]cnc45)CC3)c2)cc1
inhibition (rep nsp14; 3.125 µM): 66%
